{"data": "Experimental data from different studies", "note": "Parts stem from different laboratories: compare values within a part only."}
{"data": "Sample 1", "target": "Prothrombin, mature alpha-thrombin (F2, Homo sapiens, UniProt P00734)", "method": "aptamer microarray, sandwich", "molecule type": "DNA with 2'F-ANA", "sample": "in vitro", "concentration": "200 nM", "setting": "whole 15-mer aptamer, many near background", "with": "Cy3 exosite-II aptamer, 400 nM", "direction": "higher = stronger binding"}
{"Strand": "GGTTGGTGTGGTTGG (2'F-ANA at 2 3 6 7 8 9 10 13 14 15)", "mean fluorescence intensity": "231 a.u."}
{"Strand": "GGTTGGTGTGGTTGG (2'F-ANA at 1 2 4 7 8 10 12 13)", "mean fluorescence intensity": "54.2 a.u."}
{"Strand": "GGTTGGTGTGGTTGG (2'F-ANA at 1 2 4 6 7 10 12 14 15)", "mean fluorescence intensity": "46.9 a.u."}
{"Strand": "GGTTGGTGTGGTTGG (2'F-ANA at 1 4 5 7 12 13)", "mean fluorescence intensity": "128 a.u."}
{"data": "Sample 2", "target": "Fragile X messenger ribonucleoprotein 1, C-terminal low-complexity region (Fmr1, Mus musculus, UniProt P35922)", "method": "RNA Bind-n-Seq", "molecule type": "RNA", "sample": "in vitro", "concentration": "200 nM", "setting": "whole 134-nt RNA, ends assumed", "with": "150 mM KCl", "reference": "input library", "direction": "higher = stronger binding"}
{"Strand": "GGGAGUUCUACAGUCCGACGAUCGUCCUGUGCUACACAUCGUAUGUACCGAAUCGGGGAAAGGGGAGGGGUUUUUUUGGGGAAAGUAUUAUGUUACGCCGUUCGGAUCUGCACUGGAAUUCUCGGGUGUCAAGG", "log2 enrichment": 0.428}
{"Strand": "GGGAGUUCUACAGUCCGACGAUCUCCUCAAGUCCUGUGCUACACAUCGUAUGUACCGAAUCGGGCGGCGGGCGGGAAAGUAUUAUGUUACGCCGUUCGGAUCUGCACUUCCAGUGGAAUUCUCGGGUGUCAAGG", "log2 enrichment": 0.758}
{"Strand": "GGGAGUUCUACAGUCCGACGAUCUACCUUUAGAGGAGGAUCUGAUGGAUAUGGCAGUGGACGUGGAUUUGGGGAUGGCUAUAAUGGGUAUGGAGGAGGACCUGGAGGUGGCAAUGGAAUUCUCGGGUGUCAAGG", "log2 enrichment": 0.307}
{"Strand": "GGGAGUUCUACAGUCCGACGAUCUAACUUUAGAGGAGGAUCUGAUGGAUAUGGCAGUGGACGUGGAUUUGGAGAUGGCUAUAAUGGGUAUGGAGGAGGACCUGGAGGUGGCAAUGGAAUUCUCGGGUGUCAAGG", "log2 enrichment": 0.359}
{"data": "Sample 3", "target": "Histone acetyltransferase KAT6A, winged helix 2, GST fusion (KAT6A, Homo sapiens, UniProt Q92794, residues 85-181)", "method": "protein binding microarray", "molecule type": "double-stranded DNA, one strand shown", "sample": "in vitro", "concentration": "not given", "setting": "8-mer, flanks averaged, mean of 2 arrays, mostly near background", "reference": "not given", "direction": "higher = stronger binding", "Target sequence (chain)": "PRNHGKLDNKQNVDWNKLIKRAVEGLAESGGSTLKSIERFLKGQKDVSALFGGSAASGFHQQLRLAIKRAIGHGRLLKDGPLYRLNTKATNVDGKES"}
{"Strand": "ACGTTAAG", "E-score": -0.224}
{"Strand": "CGGATGTC", "E-score": 0.154}
{"Strand": "CAACCCGG", "E-score": 0.00147}
{"Strand": "CCACCGCC", "E-score": 0.151}
{"data": "Single results of other studies"}
{"Substance": "PhoQ, residues 284 288 289 292 302 303 AQGLTV", "target": "PhoP, residues 12 14 15 18 19 SPWRL (Escherichia coli, UniProt P23836)", "test": "Sort-seq, item: YFP reporter", "system": "E. coli", "conditions": "PhoQ-PhoP variant library, with: 10 µM Mg2+", "how to read": "reference: high Mg2+ state, higher = stronger signaling", "measurement": "fold induction", "result": 0.663}
{"note": "Some of these lines once more (sample 2):"}
{"Strand": "GGGAGUUCUACAGUCCGACGAUCUAACUUUAGAGGAGGAUCUGAUGGAUAUGGCAGUGGACGUGGAUUUGGAGAUGGCUAUAAUGGGUAUGGAGGAGGACCUGGAGGUGGCAAUGGAAUUCUCGGGUGUCAAGG", "log2 enrichment": 0.359}
